Results of several laboratories.
A part holds a random share of what one study measured.
Sequence of UniProt P42336 (whole entry, unmodified, looked up): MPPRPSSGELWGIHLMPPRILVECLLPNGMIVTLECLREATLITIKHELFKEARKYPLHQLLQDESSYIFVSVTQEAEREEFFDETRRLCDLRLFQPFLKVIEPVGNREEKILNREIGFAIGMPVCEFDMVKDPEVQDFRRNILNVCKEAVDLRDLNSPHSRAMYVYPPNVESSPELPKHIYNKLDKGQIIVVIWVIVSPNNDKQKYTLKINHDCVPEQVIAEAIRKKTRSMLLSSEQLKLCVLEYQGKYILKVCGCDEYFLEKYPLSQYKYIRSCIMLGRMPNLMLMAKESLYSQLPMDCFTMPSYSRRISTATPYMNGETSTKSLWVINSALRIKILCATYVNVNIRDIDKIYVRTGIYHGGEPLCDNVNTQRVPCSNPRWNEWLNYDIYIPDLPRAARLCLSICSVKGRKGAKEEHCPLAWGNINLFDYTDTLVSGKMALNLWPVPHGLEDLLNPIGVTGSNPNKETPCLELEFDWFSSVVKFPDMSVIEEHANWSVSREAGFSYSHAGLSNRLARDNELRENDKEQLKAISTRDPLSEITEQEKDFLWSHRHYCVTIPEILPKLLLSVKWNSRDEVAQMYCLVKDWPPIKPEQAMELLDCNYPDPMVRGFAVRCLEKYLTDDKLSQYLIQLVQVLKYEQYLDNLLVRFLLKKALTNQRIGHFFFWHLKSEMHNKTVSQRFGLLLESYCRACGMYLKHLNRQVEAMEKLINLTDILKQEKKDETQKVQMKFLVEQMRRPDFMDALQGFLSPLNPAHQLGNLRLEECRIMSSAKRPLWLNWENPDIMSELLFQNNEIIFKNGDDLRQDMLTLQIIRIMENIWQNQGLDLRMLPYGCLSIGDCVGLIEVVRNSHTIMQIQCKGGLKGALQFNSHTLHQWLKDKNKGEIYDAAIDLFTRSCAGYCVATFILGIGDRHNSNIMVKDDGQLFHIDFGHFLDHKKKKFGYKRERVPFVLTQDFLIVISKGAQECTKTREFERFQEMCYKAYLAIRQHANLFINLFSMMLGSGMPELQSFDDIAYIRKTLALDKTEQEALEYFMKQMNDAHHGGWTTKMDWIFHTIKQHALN
Sequence of UniProt P52333 (whole entry, looked up): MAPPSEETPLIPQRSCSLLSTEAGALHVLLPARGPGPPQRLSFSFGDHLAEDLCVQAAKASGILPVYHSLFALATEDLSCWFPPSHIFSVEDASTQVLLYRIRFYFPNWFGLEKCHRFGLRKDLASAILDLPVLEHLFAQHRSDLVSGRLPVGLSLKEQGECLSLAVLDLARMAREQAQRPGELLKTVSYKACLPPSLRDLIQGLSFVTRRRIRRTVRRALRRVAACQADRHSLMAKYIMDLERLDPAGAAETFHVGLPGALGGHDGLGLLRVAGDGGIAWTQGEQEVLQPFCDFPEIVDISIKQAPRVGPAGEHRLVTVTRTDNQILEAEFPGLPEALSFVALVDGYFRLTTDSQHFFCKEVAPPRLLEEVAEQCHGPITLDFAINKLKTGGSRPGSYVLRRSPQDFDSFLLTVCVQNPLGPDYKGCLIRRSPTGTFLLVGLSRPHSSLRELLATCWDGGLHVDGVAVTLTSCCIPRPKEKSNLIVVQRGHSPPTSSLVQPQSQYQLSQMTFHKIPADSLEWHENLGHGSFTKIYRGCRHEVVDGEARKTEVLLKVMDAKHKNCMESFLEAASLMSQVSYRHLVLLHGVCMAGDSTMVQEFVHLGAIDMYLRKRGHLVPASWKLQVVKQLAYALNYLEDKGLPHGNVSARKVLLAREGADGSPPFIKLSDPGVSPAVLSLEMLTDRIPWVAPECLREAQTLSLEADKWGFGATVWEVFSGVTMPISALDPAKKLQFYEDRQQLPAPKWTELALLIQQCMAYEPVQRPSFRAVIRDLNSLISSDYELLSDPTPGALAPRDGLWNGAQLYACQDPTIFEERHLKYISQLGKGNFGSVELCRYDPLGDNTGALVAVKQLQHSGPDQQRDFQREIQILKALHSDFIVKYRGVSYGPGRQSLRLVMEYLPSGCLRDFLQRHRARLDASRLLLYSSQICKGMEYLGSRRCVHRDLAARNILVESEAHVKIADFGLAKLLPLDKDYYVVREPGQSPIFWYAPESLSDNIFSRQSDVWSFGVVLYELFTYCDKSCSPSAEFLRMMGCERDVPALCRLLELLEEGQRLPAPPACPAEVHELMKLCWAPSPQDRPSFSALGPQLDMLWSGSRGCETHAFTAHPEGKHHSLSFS
Sequence of UniProt Q9UHD2 (whole entry, looked up): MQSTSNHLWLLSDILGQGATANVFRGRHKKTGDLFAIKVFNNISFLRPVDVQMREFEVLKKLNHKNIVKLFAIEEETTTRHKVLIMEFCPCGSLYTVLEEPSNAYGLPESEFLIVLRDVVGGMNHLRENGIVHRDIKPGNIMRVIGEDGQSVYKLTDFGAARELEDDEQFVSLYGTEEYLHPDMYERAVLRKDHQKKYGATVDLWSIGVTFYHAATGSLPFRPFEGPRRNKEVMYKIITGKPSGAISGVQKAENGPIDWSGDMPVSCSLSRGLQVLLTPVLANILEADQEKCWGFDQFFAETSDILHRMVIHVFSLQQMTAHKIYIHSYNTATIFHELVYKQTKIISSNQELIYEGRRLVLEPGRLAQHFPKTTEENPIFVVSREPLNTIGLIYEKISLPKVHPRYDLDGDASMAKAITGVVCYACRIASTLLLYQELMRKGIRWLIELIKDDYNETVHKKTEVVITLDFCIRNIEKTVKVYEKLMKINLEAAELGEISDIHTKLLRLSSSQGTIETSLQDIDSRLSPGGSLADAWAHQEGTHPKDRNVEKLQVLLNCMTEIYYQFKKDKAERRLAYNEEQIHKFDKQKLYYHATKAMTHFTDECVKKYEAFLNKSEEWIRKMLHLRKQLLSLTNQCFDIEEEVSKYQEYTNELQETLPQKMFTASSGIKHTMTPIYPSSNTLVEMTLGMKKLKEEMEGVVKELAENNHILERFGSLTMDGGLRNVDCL
Sequence of UniProt Q9P289 (whole entry, looked up): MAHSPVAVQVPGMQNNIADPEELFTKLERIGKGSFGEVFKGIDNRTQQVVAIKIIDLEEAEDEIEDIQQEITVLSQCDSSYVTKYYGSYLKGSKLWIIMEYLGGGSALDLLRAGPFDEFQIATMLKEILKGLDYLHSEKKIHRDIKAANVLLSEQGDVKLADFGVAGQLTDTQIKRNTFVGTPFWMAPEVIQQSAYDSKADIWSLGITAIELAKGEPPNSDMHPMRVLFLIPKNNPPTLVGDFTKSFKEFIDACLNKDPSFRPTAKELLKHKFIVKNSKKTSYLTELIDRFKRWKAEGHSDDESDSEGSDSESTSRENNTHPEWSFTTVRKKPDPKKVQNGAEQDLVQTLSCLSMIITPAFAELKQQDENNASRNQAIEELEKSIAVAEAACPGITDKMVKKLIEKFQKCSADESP
Sequence of UniProt P36896 (whole entry, looked up): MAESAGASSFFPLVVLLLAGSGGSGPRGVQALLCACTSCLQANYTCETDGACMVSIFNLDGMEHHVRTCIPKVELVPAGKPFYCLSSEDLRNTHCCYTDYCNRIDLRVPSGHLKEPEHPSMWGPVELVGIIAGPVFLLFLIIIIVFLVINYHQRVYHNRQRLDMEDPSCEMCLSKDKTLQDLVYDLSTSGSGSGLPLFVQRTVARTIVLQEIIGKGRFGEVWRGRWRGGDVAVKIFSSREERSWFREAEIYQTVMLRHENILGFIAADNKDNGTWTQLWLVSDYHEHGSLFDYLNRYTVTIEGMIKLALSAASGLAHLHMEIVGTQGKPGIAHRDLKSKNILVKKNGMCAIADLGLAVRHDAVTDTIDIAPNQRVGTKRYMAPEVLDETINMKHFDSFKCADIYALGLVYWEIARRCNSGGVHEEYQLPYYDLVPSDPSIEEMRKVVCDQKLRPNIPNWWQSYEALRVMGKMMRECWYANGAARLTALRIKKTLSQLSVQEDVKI
Sequence of UniProt Q9HC98 (whole entry, looked up): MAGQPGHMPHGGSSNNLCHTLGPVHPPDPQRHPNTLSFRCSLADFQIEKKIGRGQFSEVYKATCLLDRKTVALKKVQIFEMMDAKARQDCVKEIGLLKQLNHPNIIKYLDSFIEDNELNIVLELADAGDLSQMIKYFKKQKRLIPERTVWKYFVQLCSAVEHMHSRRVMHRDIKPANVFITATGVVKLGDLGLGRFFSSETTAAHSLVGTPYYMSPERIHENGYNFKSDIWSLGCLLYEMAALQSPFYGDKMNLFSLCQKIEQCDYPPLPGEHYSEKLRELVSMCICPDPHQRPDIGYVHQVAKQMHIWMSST

Sample 1 — Compound: CCOc1nc(NC(=O)Cc2cc(OC)ccc2OC)cc(N)c1C#N; observed: enzyme activity; mode: inhibitor; tested at: 0.5 µM; reference: control
| target | remaining activity [%] |
| --- | --- |
| CSNK1G3 (Homo sapiens, UniProt Q9Y6M4) | 105 |
| EPHA3 (Homo sapiens, UniProt P29320) | 94.7 |
| FGFR1 (Homo sapiens, UniProt P11362) | 106 |
| ARAF (Homo sapiens, UniProt P10398) | 104 |
| TBK1 (Homo sapiens, UniProt Q9UHD2) | 96.6 |
| NEK6 (Homo sapiens, UniProt Q9HC98) | 98.1 |
| GSK3B (Homo sapiens, UniProt P49841) | 101 |
| WEE1 (Homo sapiens, UniProt P30291) | 88.1 |
| ACVR1B (Homo sapiens, UniProt P36896) | 98.5 |
| MAP2K2 (Homo sapiens, UniProt P36507) | 90.3 |
| MST1R (Homo sapiens, UniProt Q04912) | 95 |
| JAK3 (Homo sapiens, UniProt P52333) | 99.1 |

Sample 2 — method: EMSA with sequencing; molecule type: double-stranded DNA, one strand shown; sample: in vitro; tested at: 10 and 20 nM; reference: negative control set to 0; direction: higher = stronger binding
Target: Hepatocyte nuclear factor 3-alpha (Foxa1, Mus musculus, UniProt P35582, residues 1-468, full length assumed)
Sequence of UniProt P35582 (whole entry, looked up): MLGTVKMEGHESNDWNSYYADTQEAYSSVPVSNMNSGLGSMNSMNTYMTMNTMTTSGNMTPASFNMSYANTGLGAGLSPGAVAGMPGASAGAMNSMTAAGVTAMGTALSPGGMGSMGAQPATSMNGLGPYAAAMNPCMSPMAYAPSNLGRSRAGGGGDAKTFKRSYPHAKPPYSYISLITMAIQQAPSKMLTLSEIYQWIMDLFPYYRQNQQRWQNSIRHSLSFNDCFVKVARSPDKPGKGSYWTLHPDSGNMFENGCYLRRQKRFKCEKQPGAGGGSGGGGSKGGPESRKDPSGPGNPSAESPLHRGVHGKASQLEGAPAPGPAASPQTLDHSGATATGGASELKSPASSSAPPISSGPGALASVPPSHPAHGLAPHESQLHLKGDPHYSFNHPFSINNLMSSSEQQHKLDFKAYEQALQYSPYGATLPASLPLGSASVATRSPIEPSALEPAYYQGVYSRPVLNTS
Setting: whole designed probe, mean of two concentrations, ends assumed
All sequences stand within: GTGAGCGGTGCCCATTGATGGGGAAC … TTTCACTGGGATCGTGGGGAC
| Strand | normalised bound fraction [ratio] |
| --- | --- |
| TTTTTGTTAACACTTAGATATGCCTTCCCTTCTCAAGGAGGATTATCCTATAAACTTAACCTTTGAATTAAAGATATTTATTGACTAACAATGTAAACAGGAAAAACTTTAAAATCTCAACAGAAATTATTTTCTCTTTAAATACTTTATTACTTTTTATTTTACAGCAACTCACATTTATGGCTTAATATGG | 0.288 |
| CTCATTCCTTGCTTCCGCCAATAATCTGACTAGTAAAGAAGTCACTGCATGCCACAAATTGTCAGTGCTGACTTCCTCAACAAGGAAGTTATTTATTTACTTATTTAATATATATGCAAAGAGTGACTCAGTTCCATCTTGAGAATACCAACTCCTGATGCCAACTGATTGTCAGTCATGGCTACAACAGGAG | 0.472 |
| AGGAGATGCCCTTGCCCCTCCTCTCTGGTGACTCGGGGACACAGTGCCCTTCCCTAGGGAACAGACTTCAAACCCAGCTAAGACAGGGCCCCTGTTTACTCAGCAGAGTAGGCAAGAAAGTAACAGCTAGGTAGTGCCACACAACACTGCCTCATAAATCATTAGCCGTGTATGAGCTAGAACCACCAGAGAG | 0.267 |
| CCCATGTTAAGAGGCCAGGCAGACAGACCTAGGGCTGGATCTGCAGATAAGTCATCTACACTGGACCCTTGGCTTTGCTTTTAATTGGTTCAATATTTGCACAGTGACATCACACCTGCGCCTTACCTACTCAATAACAAGCTTTCTCTCAGTCACCCAGAAGAAACTGCAAAGAAAAGCAAATTGTTTCAGG | 0.426 |
| GAGAGTCTGTGAATAGGTGCCTACCTCCATCCCGCACTGGGGGCATGAGAGGAGCAGGAACCTTGCATTAGACACAAAGGGTACCCAAGCCAAAATAAACATCCATAAAGGGCCCCGCCCTGAGGTCCTTGGCATGCTACAGAATAACCTGTTCCAAGCCATGTGGGCAAGACTAAAGCGATACCCTCCCAAG | 0.232 |
| TTATGATCTGAGTATATATAGTAAGTACCTCCCCTTTCAGGGTAAGGCAGTAGGTAATACAGGGAAGCAGGTGAAAAGGTGACTCAGGTTGAGTAAACAACACCAAGCATATCTGACTCAAGGAATGCTTCAGAGGCCAGGGGTGCATGCCTGTAATCCCAGCACCTTGGAAGGCTGACACAGGAGGATCACT | 0.419 |
| CTGAATCCGCCTTCTGTCCCACACCCAACTCCTGCTCTGCCTCTGCAGCCACCTGCAGGCTCTCAGCGCACTCCTCAAAATCTATTTCTGCTGTGTTTACCCAACACGACGAGCAGGAAACTCCCTTGAAATTCCCAGGCCTTTCCCAGAGTTCCTCAGTTCCTTTTCTTAAAATTCCTGCTGTCCCCAAAGA | 0.21 |
| CCAGTGAATATATATATATATTTTCAAATTTGATTTTCCAAATGTCCCGGGAGCACATGCCCTGTTTCCTAATGAATCTCCGGGGTTCTTCAGAGTAATCTACAAAACATAGCATTCCTGCTTTGGGACTCCAGCCCTCCACCCTGGGGAGCACGTGTCTCCTTGACCATGGTCATCTCCTACTAGACCGGAG | -0.0324 |

Sample 3 — observed: cell-free assay; method: competition with immobilised ligand; tested at: 0.1 µM
SMILES: C[C@H](c1ccnc(Nc2nc3ccc(-c4cc(N(C)C)ncn4)cc3[nH]2)c1)N1CCN(C(=O)CC(F)(F)F)CC1
| target | remaining binding [%] |
| --- | --- |
| PIK3CA (Homo sapiens, UniProt P42336) | 100 |
| BMP2K (Homo sapiens, UniProt Q9NSY1) | 100 |
| STK26 (Homo sapiens, UniProt Q9P289) | 100 |
| PIK3CA (Homo sapiens, UniProt P42336, Q546K) | 45 |
| FYN (Homo sapiens, UniProt P06241) | 79 |

Sample 4 — method: RNA Bind-n-Seq; molecule type: RNA; sample: in vitro; tested at: not given; reference: input RNA pool; direction: higher = stronger binding
Target: RING finger protein unkempt homolog, zinc fingers 1-6, GST-SBP tag (UNK, Homo sapiens, UniProt Q9C0B0, residues 30-357)
Sequence of UniProt Q9C0B0 (30-357, looked up): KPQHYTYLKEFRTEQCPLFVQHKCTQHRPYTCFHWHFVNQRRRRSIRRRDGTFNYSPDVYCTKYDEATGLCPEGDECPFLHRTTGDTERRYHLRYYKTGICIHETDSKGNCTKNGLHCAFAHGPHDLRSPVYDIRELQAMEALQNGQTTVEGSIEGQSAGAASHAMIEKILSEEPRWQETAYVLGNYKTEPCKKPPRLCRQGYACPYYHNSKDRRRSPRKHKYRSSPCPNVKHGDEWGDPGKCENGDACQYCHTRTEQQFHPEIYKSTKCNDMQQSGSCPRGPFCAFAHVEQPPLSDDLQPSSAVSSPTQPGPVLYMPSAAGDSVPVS
Setting: RNA with constant flanks, human-mouse chimeric sites, ends assumed
All sequences stand within: GGGAGUUCUACAGUCCGACGAUC … CAACAGAGGAUUGAGCAUCA
| Strand | bound/input enrichment |
| --- | --- |
| UAAGUUAUUUUGUACAGCUUUGUAAAUUCUUAACAUUUUUAUAUUGCCAUGUUUAUUUUGUUUGGGUAAUUUGGUUCAUACAUGGCCUAGCUAAGGUAAUGAACAUCUUUUUCAGUAAUU | 1.29 ratio |
| GUAAUGGACGUUAAUACUGCUCUACAAGAGGUGCUGAAGACCGCCCUCAUCCACGAUGGCCUAGCACGUGGAAUUCGCGAAGCUGCCAAAGCCUUAGACAAGCGCCAAGCCCAUCUGUGU | 0.434 ratio |
| AACUUCGUGCAUCGGUUUCCCUUUGUAGCUGUUUCAAUUGGCUUUGCUGUGAAUAAAGAGAUGGAGUUUGGAGUUGUGUACAGCUGUGUGGAAGAUAAGAUGUACACCGGCAGGAAAGGG | 0.586 ratio |
| ACUCAGAGAUCCACCUCCCAAAGUGCUGGGAGUAAAGGUGUGGCCACUCAAUUCUCCUUGAUGGAUAUAUAUUUUUUUUAAUAUGAAUGAACUCUUGCGUCCAGGGAAGAAAGAUUUGUU | 0.307 ratio |
| CCAAUUGUGGAGCAGUACUUGAAGACAAAGAAAAAUUCUAAUAAUUUAAUCAUCAAGUACAUUAGCUGCCGCCUGCUGACACUCAUCGUUAUACUGUUAGCGUGUAUCUACCUGGGCUAU | 0.437 ratio |
| AUAAAGGCCAUGUUGAGUGGUCCAGGUCAGUUUGCUGAGAAUGAAACCAACGAGGUCAAUUUUAGAGAGAUCCCCUCACAUGUGCUAUCGAAAGUAUGCAUGUAUUUUACCUACAAGGUC | 0.177 ratio |
| CAGCGCCGAGGCCGCGGGUGCCCGCCGGGCCUCCCCAGCAGCAGCCAUGGGCAUCAAAUUUUUAGAAGUUAUUAAACCAUUCUGUGCAGUUCUACCAGAAAUUCAGAAACCGGAAAGGAA | 4.47 ratio |
| GCACUUGGGAAUGUAAUCAGCGCCUUGGGGGACAAGAGCAAGAGAGCCACCCAUGUCCCCUAUAGAGACUCUAAGCUGACAAGACUCUUGCAGGAUUCCCUUGGGGGUAACAGCCAAACC | 0.147 ratio |

Excerpt of the above (sample 1):
| target | remaining activity [%] |
| --- | --- |
| GSK3B (Homo sapiens, UniProt P49841) | 101 |
| ACVR1B (Homo sapiens, UniProt P36896) | 98.5 |
| FGFR1 (Homo sapiens, UniProt P11362) | 106 |
| CSNK1G3 (Homo sapiens, UniProt Q9Y6M4) | 105 |
| MST1R (Homo sapiens, UniProt Q04912) | 95 |
